{"data": "Assay results collected from several papers", "cell line": "SK-MEL-28", "note": "Compare with care: the assays were run in different laboratories. ± marks the error that the study gave."}
{"SMILES": "CC(=O)OC[C@H]1O[C@@H](Sc2sc(C(=O)c3ccc(C)cc3)c(N)c2-c2nc3ccccc3s2)[C@H](OC(C)=O)[C@@H](OC(C)=O)[C@@H]1OC(C)=O", "assay": "SRB", "setting": "10 µM, 48 h", "scale": "relative to: untreated", "quantity": "growth", "value": "76.4%"}
{"SMILES": "COc1ccc2c(c1)/C(=N\\Nc1nnc3n1N=C(c1ccccc1)CS3)C(=O)N2", "assay": "cell growth or viability, SRB", "setting": "10 µM", "quantity": "inhibition", "value": "15%"}
{"SMILES": "CCCCCCCCC1(CCCCCCCC)c2cc(C#Cc3cc4[n+]5c(c3)-c3cccc[n+]3[Ir-3]536([n+]5ccccc5-4)[n+]4ccccc4-c4cc(-c5ccccc5)cc([n+]43)-c3cccc[n+]36)ccc2-c2ccc(C#Cc3cc4[n+]5c(c3)-c3cccc[n+]3[Ir-3]536([n+]5ccccc5-4)[n+]4ccccc4-c4cc(-c5ccccc5)cc([n+]43)-c3cccc[n+]36)cc21.F[P-](F)(F)(F)(F)F.F[P-](F)(F)(F)(F)F.F[P-](F)(F)(F)(F)F.F[P-](F)(F)(F)(F)F.F[P-](F)(F)(F)(F)F.F[P-](F)(F)(F)(F)F", "assay": "cell viability, resazurin", "setting": "16 h before light, visible light 100 J/cm2", "quantity": "EC50", "value": "0.83 ± 0.05 µM"}
{"SMILES": "N#Cc1c(-c2ccc(Cl)cc2)cc(-c2cccc3ccccc23)nc1NNC(=O)Cc1ccccc1", "assay": "cell growth or viability, MTT", "setting": "72 h", "quantity": "IC50", "value": "0.255 µM"}
{"SMILES": "FC(F)(F)c1ccnc(-c2cc(C(F)(F)F)ccn2)c1.FC(F)(F)c1ccnc(-c2cc(C(F)(F)F)ccn2)c1.[Cl-].[Cl-].[Ru+2].c1csc(-c2ccc(-c3ccc(-c4nc5c6cccnc6c6ncccc6c5[nH]4)s3)s2)c1", "assay": "cell viability", "setting": "100 J/cm2 light, normoxia, added: visible light 400-700 nm", "scale": "relative to: dark over light EC50", "quantity": "phototherapeutic index", "value": 920}
{"SMILES": "CC/C=C\\C/C=C\\C/C=C\\C/C=C\\C/C=C\\C/C=C\\CCC(=O)Nc1ccn(C2OC(CO)C(O)C2(F)F)c(=O)n1 (stereo not drawn)", "assay": "cell growth or viability, SRB", "quantity": "GI50", "value": "10.1 µM"}
{"SMILES": "CC(C)(C)c1nc(-c2cccc(NS(=O)(=O)c3c(F)cccc3F)c2F)c(-c2ccnc(N)n2)s1.Cc1[nH]c2ccccc2c1CCNCc1ccc(/C=C/C(=O)NO)cc1", "assay": "flow cytometry", "setting": "concentration not given, 48 h, concentration about IC50", "quantity": "cells in G0/G1 phase", "value": "8.11%"}
{"SMILES": "CCCCCCCCC1(CCCCCCCC)c2cc(-c3cc4[n+]5c(c3)-c3cccc[n+]3[Ir-3]536([c]5ccccc5-c5cc(-c7ccccc7)cc([n+]53)-c3cccc[c]36)[n+]3ccccc3-4)ccc2-c2ccc(-c3cc4[n+]5c(c3)-c3cccc[n+]3[Ir-3]536([c]5ccccc5-c5cc(-c7ccccc7)cc([n+]53)-c3cccc[c]36)[n+]3ccccc3-4)cc21.F[P-](F)(F)(F)(F)F.F[P-](F)(F)(F)(F)F", "assay": "cell viability, resazurin", "setting": "16 h before light, red light 100 J/cm2", "quantity": "EC50", "value": "85.1 ± 1 µM"}
{"SMILES": "FC(F)(F)c1ccnc(-c2cc(C(F)(F)F)ccn2)c1.FC(F)(F)c1ccnc(-c2cc(C(F)(F)F)ccn2)c1.[Cl-].[Cl-].[Ru+2].c1cnc2c(c1)c1nc[nH]c1c1cccnc12", "assay": "cell growth or viability, resazurin", "setting": "dark", "quantity": "EC50", "value": "> 300 µM"}
{"SMILES": "CCCCCCCCC1(CCCCCCCC)c2cc(-c3cc4[n+]5c(c3)-c3cccc[n+]3[Ir-3]536([n+]5ccccc5-c5cc(-c7ccccc7)cc([n+]53)-c3cccc[n+]36)[n+]3ccccc3-4)ccc2-c2ccc(-c3cc4[n+]5c(c3)-c3cccc[n+]3[Ir-3]536([n+]5ccccc5-c5cc(-c7ccccc7)cc([n+]53)-c3cccc[n+]36)[n+]3ccccc3-4)cc21.F[P-](F)(F)(F)(F)F.F[P-](F)(F)(F)(F)F.F[P-](F)(F)(F)(F)F.F[P-](F)(F)(F)(F)F.F[P-](F)(F)(F)(F)F.F[P-](F)(F)(F)(F)F", "assay": "cell viability, resazurin", "setting": "16 h before light, red light 100 J/cm2", "quantity": "EC50", "value": "59.7 ± 0.4 µM"}
{"SMILES": "FC(F)(F)c1ccnc(-c2cc(C(F)(F)F)ccn2)c1.FC(F)(F)c1ccnc(-c2cc(C(F)(F)F)ccn2)c1.[Cl-].[Cl-].[Ru+2].c1csc(-c2nc3c4cccnc4c4ncccc4c3[nH]2)c1", "assay": "cell viability", "setting": "normoxia, added: green light 523 nm, 100 J/cm2", "scale": "relative to: dark EC50 over light EC50", "quantity": "phototherapeutic index", "value": 2}
{"SMILES": "CCC(=C(c1ccc(Cl)cc1)c1ccc(OCCCN(C)C)cc1)c1ccc(OC)cc1", "assay": "cell growth or viability, SRB", "quantity": "GI50", "value": "1.33 µM"}
{"note": "Some of these lines once more:"}
{"SMILES": "CCC(=C(c1ccc(Cl)cc1)c1ccc(OCCCN(C)C)cc1)c1ccc(OC)cc1", "assay": "cell growth or viability, SRB", "quantity": "GI50", "value": "1.33 µM"}
